Measurements gathered from unrelated publications.
Compare with care: the assays were run in different laboratories.
Target: Serine/threonine-protein kinase Nek11 (NEK11, Homo sapiens, UniProt Q8NG66)
One construct used (Q8NG66 1-645): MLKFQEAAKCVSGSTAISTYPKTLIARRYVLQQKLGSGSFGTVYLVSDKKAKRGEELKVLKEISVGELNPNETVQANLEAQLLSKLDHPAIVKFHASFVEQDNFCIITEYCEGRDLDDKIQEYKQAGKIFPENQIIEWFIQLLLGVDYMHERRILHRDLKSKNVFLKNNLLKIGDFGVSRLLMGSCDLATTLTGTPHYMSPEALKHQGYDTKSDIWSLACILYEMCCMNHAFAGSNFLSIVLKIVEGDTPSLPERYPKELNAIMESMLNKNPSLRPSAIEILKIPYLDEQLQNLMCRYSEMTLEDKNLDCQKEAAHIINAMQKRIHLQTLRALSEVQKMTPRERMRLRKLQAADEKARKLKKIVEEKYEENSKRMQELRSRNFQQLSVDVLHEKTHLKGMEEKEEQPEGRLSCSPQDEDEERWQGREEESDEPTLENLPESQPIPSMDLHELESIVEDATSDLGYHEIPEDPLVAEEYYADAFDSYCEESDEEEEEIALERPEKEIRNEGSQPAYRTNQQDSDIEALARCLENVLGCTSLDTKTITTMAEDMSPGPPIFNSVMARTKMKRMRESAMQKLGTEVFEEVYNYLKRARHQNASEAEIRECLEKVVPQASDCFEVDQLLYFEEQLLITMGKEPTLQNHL

| SMILES | assay | conditions | how to read | quantity | value |
| --- | --- | --- | --- | --- | --- |
| CN1C[C@@H](c2c[nH]c3cc(Br)ccc23)NC[C@@H]1c1c[nH]c2cc(Br)ccc12 | enzyme activity, inhibitor | 10 µM | – | remaining activity | 106% |
| COc1cc(Nc2nccc(-c3cnn4nc(OC)ccc34)n2)cc(C(F)(F)F)c1 | binding, competition with immobilised ligand | 1 µM | – | remaining binding | 94% |
| CCN1CCN(Cc2ccc(C(=O)Nc3ccc(C)c(NCc4cnc5[nH]ccc5c4OC)c3)cc2C(F)(F)F)CC1 | binding, competition with immobilised ligand | 1 µM | – | remaining binding | 51% |
| CN1CC[C@@H](COc2cnc(C#N)cc2-c2ccn3nc(NC(=O)C4CC4)cc3c2)C1 | enzyme activity, inhibitor | 1 µM | – | inhibition | 4% |
| O=C=[N][Ru-4]123([n]4c5ccc(O)cc5c5c6c(c7cc(F)c[n+]1c7c54)C(=O)NC6=O)[S+]1CC[S+]2CC[S+]3CC1 (stereo not shown) | enzyme activity | 100 nM, human enzyme, together with: 10 µM ATP | relative to: untreated | remaining activity | 101% |
| COc1ccc(NC(=O)Nc2ccc3c(c2)C(=O)N(C(C)CO)CC(C)C(CN(C)Cc2ccc4c(c2)OCO4)O3)cc1 (stereo not shown) | kinase activity, KinaseProfiler | 0.03 µM, species human | relative to: control | remaining activity | 105% |
| Nc1ncc2c(n1)-c1c([nH]c3ccc(C4=CCOCC4)cc13)CCC2 | binding, competition with immobilised ligand | 1 µM | – | remaining binding | 100% |
| O=C(Cc1ccc(OCc2ccccc2)cc1)NC1(C(=O)O)CCN(C(=O)c2ccc(-c3cccc(Cl)c3)cc2)CC1 | enzyme activity, inhibitor | 10 µM | – | activity vs control | 103% |
| Cc1ccc(-c2c(/C=C(\C#N)C(=O)NC(C)C)n(CCCO)c3ncnc(N)c23)cc1 | cell-free assay, competition with immobilised ligand | 1 µM | – | remaining binding | 73% |
| Cc1cnc2nc1Nc1cccc(c1)COC/C=C/COCc1cc(ccc1OCCN1CCOCC1)N2 | binding | 0.1 µM | – | remaining binding | 93% |
| NC(=O)C[C@H]1CCc2sc3ncnc(O[C@H]4CC[C@H](N5CCOCC5)CC4)c3c21 | enzyme activity, inhibitor | 10 µM | – | inhibition | 3% |
| CCn1cc(C(=O)O)c(=O)c2c(N)c(F)c(NC3CCCCC3)cc21 | kinase activity | 0.1 µM, together with: ATP at Km | – | inhibition | 0.4% |
| C=CC(=O)N1CCc2ccc(-n3c(=O)ccc4cnc5ccc(-c6cnn(C)c6)cc5c43)cc21 | KINOMEscan | 1 µM | relative to: DMSO control | remaining binding | 100% |

Repeated from above:
| SMILES | assay | conditions | how to read | quantity | value |
| --- | --- | --- | --- | --- | --- |
| Cc1ccc(-c2c(/C=C(\C#N)C(=O)NC(C)C)n(CCCO)c3ncnc(N)c23)cc1 | cell-free assay, competition with immobilised ligand | 1 µM | – | remaining binding | 73% |
| Cc1cnc2nc1Nc1cccc(c1)COC/C=C/COCc1cc(ccc1OCCN1CCOCC1)N2 | binding | 0.1 µM | – | remaining binding | 93% |
